{"data": "Measured values collected from several papers", "target": "Carbonic anhydrase 1 (CA1, Homo sapiens, UniProt P00915)", "note": "Protocols differ between the studies behind these lines. Numbers after ± are the reported error.", "UniProt P00915, sequence (whole entry, looked up)": "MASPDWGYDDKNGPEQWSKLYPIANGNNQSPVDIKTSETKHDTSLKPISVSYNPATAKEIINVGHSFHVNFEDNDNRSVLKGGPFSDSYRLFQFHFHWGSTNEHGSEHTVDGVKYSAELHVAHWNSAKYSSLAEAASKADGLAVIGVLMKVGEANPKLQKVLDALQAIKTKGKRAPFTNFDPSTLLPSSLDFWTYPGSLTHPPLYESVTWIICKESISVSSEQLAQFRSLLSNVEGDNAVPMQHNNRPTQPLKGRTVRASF"}
{"SMILES": "COc1cc(-c2ccnc3nc(Nc4ccc(S(N)(=O)=O)cc4)nn23)cc(OC)c1OC", "test": "enzyme activity, inhibitor, stopped-flow", "measurement": "Ki", "result": "1230 nM"}
{"SMILES": "COc1ccccc1/C=N/NC(=O)CSc1nc2ccccc2c(=O)n1CCc1ccc(S(N)(=O)=O)cc1", "test": "enzyme activity, inhibitor, stopped-flow", "measurement": "Ki", "result": "1660 nM"}
{"SMILES": "NS(=O)(=O)c1ccc(NC(=O)NN[C@@H]2OC[C@H](O)[C@H](O)[C@H]2O)cc1", "test": "enzyme activity, inhibitor", "measurement": "IC50", "result": "19400 nM"}
{"SMILES": "CC(C)c1ccc2c(c1)CC[C@H]1[C@](C)(C(=O)O)CCC[C@]21C", "test": "CO2 hydration activity, inhibitor, stopped-flow", "conditions": "pH 7.4, 25 °C", "measurement": "IC50", "result": "1350 ± 110 nM"}
{"SMILES": "CC(=O)Nc1ccc(S(=O)(=O)N2CCN(C(=O)c3cc4ccccc4oc3=O)CC2)cc1", "measurement": "Ki", "result": "> 100000 nM"}
{"SMILES": "CC(=O)Nc1ccc(S(N)(=O)=O)cc1", "test": "enzyme activity, inhibitor", "measurement": "Ki", "result": "1330 nM"}
{"SMILES": "COc1cccc(/C(C)=N/NC(=O)CSc2nc3ccccc3c(=O)n2CCc2ccc(S(N)(=O)=O)cc2)c1", "test": "enzyme activity, inhibitor, stopped-flow", "measurement": "Ki", "result": "1630 nM"}
{"SMILES": "NS(=O)(=O)c1ccc(NC(=O)NN[C@@H]2O[C@H](CO)[C@@H](O)[C@H](O)[C@@H]2O)cc1", "test": "enzyme activity, inhibitor", "measurement": "IC50", "result": "22400 nM"}
{"SMILES": "NS(=O)(=O)c1ccc(CCn2c(SCC(=O)N/N=C/c3ccccc3O)nc3ccccc3c2=O)cc1", "test": "enzyme activity, inhibitor, stopped-flow", "measurement": "Ki", "result": "132 nM"}
{"SMILES": "NS(=O)(=O)c1ccc(N/N=C2\\C(=O)N(CC(=O)Nc3ccccc3Cl)c3ccccc32)cc1", "measurement": "Ki", "result": "2700 nM"}
{"note": "A few entries again:"}
{"SMILES": "COc1cc(-c2ccnc3nc(Nc4ccc(S(N)(=O)=O)cc4)nn23)cc(OC)c1OC", "test": "enzyme activity, inhibitor, stopped-flow", "measurement": "Ki", "result": "1230 nM"}
